# Measured values of several laboratories.
# Numbered parts are unrelated; each lists some results of a single study. Substitutions count along the parent as printed.

# Series 1
# Target: Histone acetyltransferase KAT6A, winged helix 2, GST fusion (KAT6A, Homo sapiens, UniProt Q92794, residues 85-181)
# Method: protein binding microarray
# Molecule type: double-stranded DNA, one strand shown
# Medium: in vitro
# Concentration: not given
# Setting: 8-mer, flanks averaged, mean of 2 arrays, mostly near background
# Reference: not given
# Reading: higher = stronger binding
# Construct (chain): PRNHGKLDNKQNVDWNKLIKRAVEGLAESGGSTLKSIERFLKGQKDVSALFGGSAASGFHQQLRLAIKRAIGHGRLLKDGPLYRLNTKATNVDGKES
Oligonucleotide,E-score
TGCTTAAA,0.0638
GTACTGAC,-0.124
AACCTAGA,-0.069
ACAACACG,-0.124
AGCAGCTA,0.00488
ACGCTGTC,0.0519
AGCTGCCT,-0.115
ATTCTGAG,-0.0846
ACTAACAG,-0.0625
ACTGATTG,-0.0989
AGCATGTG,-0.139
GGGACCAC,0.00596
GCCCTAAA,-0.147
CAGTCGGG,0.133
AGATTAGC,-0.034
ATAGTAAA,-0.0407
CCTGTAGA,-0.0506
AGAAACAG,0.0769
AAAAAAAT,0.0682
TCTCCTAA,-0.165

# Series 2
# Target: RING finger protein unkempt homolog, zinc fingers 1-6, GST-SBP tag (UNK, Homo sapiens, UniProt Q9C0B0, residues 30-357)
# Method: RNA Bind-n-Seq
# Molecule type: RNA
# Medium: in vitro
# Concentration: not given
# Setting: RNA with constant flanks, human and mouse sites, ends assumed
# Reference: input RNA pool
# Reading: higher = stronger binding
# All sequences stand within: GGGAGUUCUACAGUCCGACGAUC … CAACAGAGGAUUGAGCAUCA
# Residues (chain): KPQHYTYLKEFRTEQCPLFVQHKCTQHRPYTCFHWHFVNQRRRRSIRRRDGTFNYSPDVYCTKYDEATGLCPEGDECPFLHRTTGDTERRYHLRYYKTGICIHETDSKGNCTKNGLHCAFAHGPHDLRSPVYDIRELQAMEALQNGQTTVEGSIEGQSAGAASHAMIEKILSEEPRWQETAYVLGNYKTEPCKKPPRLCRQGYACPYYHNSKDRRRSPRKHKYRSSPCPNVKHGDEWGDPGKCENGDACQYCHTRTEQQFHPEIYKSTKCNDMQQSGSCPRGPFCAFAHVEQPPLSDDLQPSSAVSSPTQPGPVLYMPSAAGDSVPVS
Oligonucleotide,bound/input enrichment [ratio]
UUCUGUCUGUAGGUAGGUUGUUGAUUCUAAGUAGCUUUCGUUUGUUCGUCUGUCUUAUGUCUUAGACCAGCUUUGUGGUGUUCUUGGCUCAUCUCAUAAUACUGUUGUUCAGUUUAUAUC,0.364
UUUGGAGGGAGUAGAACAGGACCCCUCUCUGGAAAGAAGUUUGGAAAUCCUGGGGAGAAACUAGUUAAAAAGAAGUGGAAUCUUGAUGAGCUGCCCAAAUUUGAGAAGAAUUUUUAUCAA,3.49
GUGAGCUUGCGGGGAAUUGGCAGUCCCAGCACAGAUGCCAGUGCCAGUGAUGUCCACGGCAAUUUCGCCUUCGAGGGCAUUGGAGAUGAGGAUCUGUAAUCUCCACUGCUUGGAUGUCUG,0.087
GGUGGCACCCUGGAUCUGACCCUGAUCCGUGCCCGCCUCCAGGAGAAGUUGUCACCUCCCUACAGCUCCCCACAGGAGUUUGCCCAGGAUGUGGGCCGCAUGUUCAAGCAAUUCAACAAG,0.0785
AAAGUCACCUCUCCUGUGUUGGUCAUUCAUGGUACAGAGGAUGAGGUCAUCGAUUUCUCCCAUGGCCUAGCGAUGUACGAGCGCUGUCCCCGAGCCGUGGAGCCCCUUUGGGUUGAAGGG,0.127
ACCCUCUCUGGGGUUCAAGAAGAGUCCGCUCUUUGCUAUCUUCUCCAGGUUGAUGAGUUUAGGUUUUUGUUGGACUGUGGCUGGGAUGAACACUUCUCUGUGGACAUUAUUGAUUCCCUG,0.195
CCGUGCGGGUUCCAGCCCGCGUCCCGCGGCGGCGGCGAGCAAGAGACGCAGGAGCUGGCCUCGAAGCGGCUGGACAUCCAGAACAAGCGCUUCUACUUAGAUGUGAAGCAGAACGCCAAG,0.159
AUGGGCAGAAAGGCACAGGUUGUGCUGUGCUUUAGCCUGCAUUUGUCUAUCCAAACUUGCUAGUUUUAUCGGCUUUUUACUUUUUUGUACUUUAUUUUUCCUAUAAAGUCCUUUUCAGAA,0.763
CACCCCACCCCACCCCCGGUGGUACCUUAAAGAGAUUAAAUGCAAACAUUCCUUGCUGAGUUUGUAGCUUAAAGGCCUGAGAAGCACUGGCACCUUUUCUCUAUGAUGGUUUGCUAGUCG,0.7
AUCUACGAAGAACUUGGCUAUGGCUGAUCUUUUUUAAAUUUAACUUUCUGAUGGACCCUGUAGUUUCCAGUUAAGUGCAGAUUCCUUACAGACAUAUAGAACAGCGCAUUCUUCUGUAGA,0.999
GCGGGCAUCCUCUCUGCCCUGGGCUCCAAGACAUCUCUUAUGAUCAGGCAUGAUAAGGUACUGAGAAAUUUUGAUUCACUCAUCAGUUCCAACUGCACCGAGGAACUGGAGAAUGCCGGC,0.206

# Series 3
# Target: ABI1, truncated, D143A, DHFR fusion (Arabidopsis thaliana)
# Method: DHFR PCA, deep sequencing
# Medium: yeast
# Setting: methotrexate growth selection, single substitutions
# Together with: (+)-ABA 4.8 µM
# Reference: wild-type fitted maximum
# Reading: higher = stronger binding
# Parent: PYL1, truncated, DHFR fusion (Arabidopsis thaliana); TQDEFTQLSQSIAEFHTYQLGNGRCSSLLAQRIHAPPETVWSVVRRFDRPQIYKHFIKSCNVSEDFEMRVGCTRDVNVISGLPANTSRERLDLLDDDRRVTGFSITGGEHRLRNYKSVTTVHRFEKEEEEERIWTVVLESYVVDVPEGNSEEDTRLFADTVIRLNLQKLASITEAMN
Substitution,relative binding score
G102T,-11.6%
C60F,2.67%
Q31W,13.6%
S87C,22.6%
H16I,-0.199%
Q10D,86.8%
G108D,4.01%
D75H,77%
A170I,-3.61%
N22S,75.7%
E147Y,59.2%
T73K,51.8%
I33F,-4.45%
D92V,4.73%
R32Q,68.5%

# Series 4
# Target: CCND1, cyclin fold, Cln2 fusion (human)
# Method: yeast growth competition, sequencing
# Medium: yeast
# Setting: strong parent motif
# Reference: not given
# Reading: higher = stronger binding
# Parent: PKN2 docking peptide (human); VSAVQKLDFSDTM
Substitution,normalised enrichment score
VSAVQKLDFSDTE [M13E],2.44
VSAVQKLFFSDTM [D8F],0.334
WSAVQKLDFSDTM [V1W],1.98
VSAVQKLDCSDTM [F9C],0.352
VSARQKLDFSDTM [V4R],1.22
VSAVQKLDFSDYM [T12Y],2.37
VSAVQKLDFDDTM [S10D],1.62
VSAVQKLDFSDTH [M13H],1.96
VSAVQKLDFSNTM [D11N],1.86
VSAVQKLLFSDTM [D8L],0.478
VSCVQKLDFSDTM [A3C],1.48
VSAVQKLDDSDTM [F9D],0.0899
VSAGQKLDFSDTM [V4G],-0.17
VSANQKLDFSDTM [V4N],0.463
VSIVQKLDFSDTM [A3I],1.07
VSAVQKLDFSDTN [M13N],2.2
VSAFQKLDFSDTM [V4F],1.44
YSAVQKLDFSDTM [V1Y],2.52
VSPVQKLDFSDTM [A3P],2.4
VSAVQKLDFSDTL [M13L],2.32
VSAVQKLDFSDIM [T12I],2.29
VMAVQKLDFSDTM [S2M],1.44
VSAVQKLDFSDCM [T12C],2.3
VSMVQKLDFSDTM [A3M],0.262
VSAVQKLDFSDFM [T12F],2.32

# Series 5
# Target: Fragile X messenger ribonucleoprotein 1, C-terminal low-complexity region (Fmr1, Mus musculus, UniProt P35922)
# Method: RNA Bind-n-Seq
# Molecule type: RNA
# Medium: in vitro
# Concentration: 200 nM
# Setting: whole 134-nt RNA, ends assumed
# Together with: 150 mM LiCl
# Reference: input library
# Reading: higher = stronger binding
# All molecules: 7-deaza-guanosine replaces G
# All sequences stand within: GGGAGUUCUACAGUCCGACGAUC … UGGAAUUCUCGGGUGUCAAGG
Oligonucleotide,log2 enrichment
UUAUUCUGUGUGACACCUGCCCUCGUGCCUACCACCUCGUCUGCCUUGAUCCUGAGCUUGACCGGGCUCCAGAGGGCAAAUGGAGCUGCC,1.28
GCAGGAAGUAAAAACAAAUGGAAAUGCUUCGGAUAGUGGCAGGGGUGGUGGUUGCUAAGGAAAGGGUGGGAUGGGAGUGGGUAAAGAGUU,1.58
AGUCCUGUGCUACACAUCGUAUGUACCGAAUCGGAAAAAAAGGAAAGGUUUUUUUGGAAAGUAUUAUGUUACGCCGUUCGGAUCUGCACU,-3.29
CUCAAGUCCUGUGCUACACAUCGUAUGUACCGAAUCGGAAGGAAGGGGAAGGGGAAAGUAUUAUGUUACGCCGUUCGGAUCUGCACUUCC,-0.061
AAGGCACGUAAGUUUAAGCUUUUUUUUUUUUUAAGUUAAUGGGAAAAAUUUGAGACGCAAUACCAAUACUUAGGAUUUUGGUCUUGGUGU,0.428
CACAGACAACACGCACCCACACAGACACAGAGGGAAGGGGUUGGGAUGGGGCCAGGGUGCACAGCAGGGCGGGGUAGGACCCCAGCCCCU,0.9
UUGGGUCCAGACUGCGCCACAGCCUCUCGGGAGACGUGGGCCCUCGGAACCUUUUUAGUGCCGGACUCCGGGCCGCAGGCAGUCCCGCGG,-3.61
AGUCCUGUGCUACACAUCGUAUGUACCGAAUCGGGGAAAAAGGGGUUUGGGGUGGGGAAAGUAUUAUGUUACGCCGUUCGGAUCUGCACU,-1
CUGUGCUACACAUCGUAUGUACCGAAUCGGGGAAAAAGGGGAAAAAGGGGUUUUUUUGGGGAAAGUAUUAUGUUACGCCGUUCGGAUCUG,-0.502
CCUCAAGUCCUGUGCUACACAUCGUAUGUACCGAAUCGGAAGGAAGGGAAGGAAAGUAUUAUGUUACGCCGUUCGGAUCUGCACUUCCAG,-0.713
UAACUUUAGAGGAGGAUCUGAUGGAUAUGGCAGUGGACGUGGAUUUGGGGAAGGCUAUAAUGGGUAUGGAGGAGGACCUGGAGGUGGCAA,0.415

# Excerpt of the above (series 3):
Substitution,relative binding score
G102T,-11.6%
H16I,-0.199%
D75H,77%
D92V,4.73%
E147Y,59.2%
I33F,-4.45%
A170I,-3.61%
G108D,4.01%
S87C,22.6%
T73K,51.8%
Q31W,13.6%
N22S,75.7%
